Measurements of several laboratories.
Numbered parts are unrelated; each lists some results of a single study. Positions count from the first letter of the parent shown.

Series 1 — method: RNA Bind-n-Seq; molecule type: RNA; sample: in vitro; concentration: 365 nM; reference: no-protein control; reading: higher = stronger binding; quantity: RBNS enrichment (R)
Target: RNA binding protein fox-1 homolog 2, RRM domain, GST-SBP tag (RBFOX2, Homo sapiens, UniProt O43251-10, residues 100-194)
Notes: natural RNA segment, single round, ends assumed
All sequences stand within: GGGAGUUCUACAGUCCGACGAUC … UGGAAUUCUCGGGUGCCAA
Sequence = UUGUAAGUGUACCCCAAUCUCAGGGAGUAUAUCUGUAGUGCCACAGGCAAAAGAUCCACUCCUUCCCACACUCAUUUGCCUGAACUUACUCGAAGGGCUGCAUUUCUCUG; result = 1.21
Sequence = UGUGACUUUUUAGCCAGUGACUUUUUCUGAGCUUUUCAUGGAAGUGGCAGUGAAAAAUAUGUUGAGUGUUCAUUUUAGUGACUGUAAUUAAUAUCUUGCUGGAUUAAUGU; result = 0.534
Sequence = AUAUGUACCCUUUCCACCCCUUGACUUGCUGAAGAAACGUUAUAGAAGAAAUUAAAUGAAUUUCCCAGGCUUUUAGGAUCCUCUGAAAUUUUGAGGAUAGGUGAGGCCUG; result = 0.973
Sequence = UGCUAUCCAUCAGAACGUCUAUUCCAGCCUUGCCAGCUUAAGAACUUAGAGAAAUUAAGAGGUAUCUUUGAUGUAUCUACCAGUAUUCAAUAGUAACAUUUACCUGUCCA; result = 0.375
Sequence = AGUGCUAAAUAAGCAUGUAUGAAAUUGAAUGGUUGUGAUGGCUGGUGGGCGGGGGCAAAGAGCCUACCAUCUCUGCCUGAGACAUCAGUUUAUACCAGACCAUUUUUACU; result = 0.469
Sequence = GUCAGCUUAUUUCUGGGGAAGGUGUUGAGCUCUUAUACAUGAAAAUGGAUAUAGGCUAUUCUCUGGGAUGAGUGUCAUUUCAAUGCUUUAUAAAUCCAUGAAGCUGCUUG; result = 0.839
Sequence = AGUUGAGCUUUUAAAAUAUUAUUUAUAGACAAUAGAAGUAUUUCUGAACAUAUCAAAUAUAAAUUUUUUUAAAGAUCUAACUGUGAAAACAUACAUACCUGUACAUAUUU; result = 0.664
Sequence = UAUUGGGGAAUGGAAACUUUGGGGGAGUGACUUUUUAAAGAGACACUUAUAAUUUCUACUACUGCACUACUGUCCAUUGUGGGAUGAUUAAACAUGGUAUUUAACUGUGC; result = 0.77
Sequence = UGUCUGUAUGUGUGUAUAGAUGGAUUGGUAUAACUCAUUCUAAACGUGUCUGCCAGGGCUCAAGUUUUAUUGUUCUUGCCCCACUCCCACCCCAUGUUACAGCAAGACUG; result = 0.526
Sequence = GUGCAGGAAAACAGGACAGACAGAGAGCACCUGAACCCUUGCCAUCUGAUGUCACCAAUUCAGGAAAACGAGUCCUCUCCUAGGACUAUCCCCGGUUCUGGAAAUCAUGU; result = 0.396
Sequence = AUAUAGAGUGACUUGGAGAGAGAUUCAGAAGUUAGGGGUAGCGGGGGUAGGAUGGUUGGGACCAGAUUGACUACCCUGUACCCUUCCUUCUUCCCCAAUAUGCCUGCGCC; result = 0.905
Sequence = UAAAGAAAGCAAAAGUUAAUUCAACUGAUCCACCAAUGGAAUUAGAUGGGUAGAGUUGGGUUCUUGAGUUUUACCACCACUUAGUUCCCACUGAAUUUUGUAACUUCCUG; result = 0.446

Series 2 — method: protein binding microarray; molecule type: double-stranded DNA, one strand shown; sample: in vitro; concentration: not given; reference: not given; reading: higher = stronger binding; quantity: E-score
Target: Histone acetyltransferase KAT6A, winged helix 2, GST fusion (KAT6A, Homo sapiens, UniProt Q92794, residues 85-181)
Notes: 8-mer, flanks averaged, mean of 2 arrays, mostly near background
Residues (chain): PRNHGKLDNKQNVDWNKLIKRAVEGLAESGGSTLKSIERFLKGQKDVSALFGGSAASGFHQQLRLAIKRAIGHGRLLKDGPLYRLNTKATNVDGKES
Sequence = GGATGAAA; result = 0.197
Sequence = GATGCCTA; result = -0.0433
Sequence = CAACGCTA; result = -0.103
Sequence = GAAGCGCC; result = -0.0244
Sequence = ATGGTACA; result = -0.136
Sequence = CCTGGCCG; result = 0.0776
Sequence = TCCCGCAA; result = 0.0753
Sequence = GTGTCTCA; result = -0.0209
Sequence = GCTCGTCC; result = 0.161
Sequence = ACTTTGCG; result = 0.0668
Sequence = GACACACA; result = 0.0699
Sequence = GTGTATGA; result = -0.0537
Sequence = CGCGGACA; result = 0.0835
Sequence = AGCGTTCC; result = -0.072
Sequence = GCGAATTA; result = 0.108
Sequence = CTATTTTC; result = 0.0518
Sequence = TAAATGCA; result = -0.0658
Sequence = ATATTCGA; result = -0.0548
Sequence = GTCGCCAA; result = 0.11
Sequence = CTACATTA; result = -0.0829
Sequence = GGGCCGTA; result = 0.133
Sequence = CAAGAGTA; result = -0.0632
Sequence = TTCAAAAA; result = 0.0971
Sequence = CCTACGCC; result = -0.0312
Sequence = AAAGGAGC; result = 0.0559

Series 3 — method: RNA Bind-n-Seq; molecule type: RNA; sample: in vitro; concentration: 100 nM; reference: input RNA pool; reading: higher = stronger binding; quantity: bound/input enrichment
Target: RING finger protein unkempt homolog, zinc fingers 1-6, SBP tag (UNK, Homo sapiens, UniProt Q9C0B0, residues 30-357)
UniProt Q9C0B0, sequence (30-357, looked up): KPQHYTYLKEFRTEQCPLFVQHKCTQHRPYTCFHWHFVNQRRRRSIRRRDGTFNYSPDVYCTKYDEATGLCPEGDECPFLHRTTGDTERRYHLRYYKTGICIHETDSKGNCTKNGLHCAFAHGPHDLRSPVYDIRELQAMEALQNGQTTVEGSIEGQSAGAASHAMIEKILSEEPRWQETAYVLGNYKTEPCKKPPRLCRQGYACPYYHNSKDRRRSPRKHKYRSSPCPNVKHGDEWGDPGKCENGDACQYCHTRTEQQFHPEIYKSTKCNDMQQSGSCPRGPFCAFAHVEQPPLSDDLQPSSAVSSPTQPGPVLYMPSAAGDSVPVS
Notes: RNA with constant flanks, vertebrate orthologous sites, ends assumed
All sequences stand within: GGGAGUUCUACAGUCCGACGAUC … CAACAGAGGAUUGAGCAUCA
Sequence = CCACACCAGAUACUUUAACUGUUUUAAAGUUACAAACAAGCUUUGCUUUUUGCAUUUAAGUAGAAUACUUUUAUAUUGUAAGUGCUUCAGAUGUGUGGAGAUGUUAGUUUGCUCUUAUAA; result = 0.408 ratio
Sequence = UAAUGUAUUCAGAACCUUAUAGUAAAAGAGCCAAGCAGUAGCAUUGUUUUUUUGUAAAUGUAGAGUCAGACUUUGUUUCCUUACUCAAUUUUAAAAAUAAAAAUACCUCAGUGCUAUGUU; result = 0.525 ratio
Sequence = UAAGUAAAAUAUUGGAUGCAGUAUAUAGAUGAUCCAAGGCAGUGACUUCAGAUUUAGAUGUUAGUUUUAAGAUUAUUUACAUUUAUUUAAACUUUUAGAUUGGACUAUUUACUAUUGCUC; result = 1.35 ratio
Sequence = GUUGUGAUCCCUUUAACAUGCACAGAAAGCUGUCAAAGAAAAACUUGCGUGCAAUUGACUUAGAUGACGCAACUUUUCUAAGUGCCAAGUUUGGAAGACAGUUUGUACCUGGCUGGAAAC; result = 0.342 ratio
Sequence = GCAUUUCAAGCUCACACCUGUAUCAACAUGGAAGUAGACCAGCUCUGCUGAUUUGAAAUUUAGACUUUUUAAUUAUGUACUGGGGACAGGUUUUUGUCGCUUUACAUUGCUUCCUAGUUU; result = 3.19 ratio
Sequence = CUCUAUGGGCCUCGCAGAGUUGAAAUAAUGGAAGAGGAAAGUGAACAGUAAUCUUCGUUGUAAUAUUUAUGCUUAGGUGUGAAAUAAAUACUAUUUGUUGAUCAUUUUGGUAAUCCAGAA; result = 0.304 ratio
Sequence = AUCAUGGCCGCUUUUACCUGCCUCAAUGAGGUAACGUCUCCCCUGACACUGGGUUGGCACCAGACCCCAUCACACCUAAUAUGUCUUUCCACAUUUUAUCUCUCUAUGCUCACACUCAUC; result = 1.27 ratio
Sequence = UACAUCUGGUGACAUAUGGCCUGGCCUUUCAGCUUAUGAUAACAGUCCUAGAUCUCCCCAUAGUCCUUCACCAAUUGCUACACCACCUAGUCAGAGUUCAUCUUGCUCUGAUGCACCCAU; result = 1.21 ratio
Sequence = CACGCGUACUGUGGCAUAUAGUCAACAUGGGAAGUAGACCAGCUCUGCUGAUUUGAAAUUUAGAUUUUUUUAAUUAUGUACUGGGGACAGGUUUUUGUCGCUUUACAUUGCUUCCUAGUU; result = 3.44 ratio
Sequence = CCUACAAUAAUGAAAAUCUACAGAAAUUUUUUUAUUUUUCAUUAUCCCCUUAGGCAUAUUUAGGCUUUCUUCCCCAGGCAGAUCAUUCUGAGUGUGCGAGUGUGUGUGCACAUGUUACAA; result = 0.697 ratio
Sequence = UAUUUUCUUAUUUUAGGUAUCAUUGCCCAGUGCCUAAGAUCUUUUAUGUUCAGCUCACUGUAGGAAAUAAUGAAUUUUUUGGAGAAGGAAAGACUCGACAAGCUGCUAGACACAAUGCUG; result = 1.34 ratio

Series 4 — target: CCNA1, cyclin fold, Cln2 fusion (human); method: yeast growth competition, sequencing; sample: yeast; notes: weak parent motif; reference: not given; reading: higher = stronger binding; quantity: normalised enrichment score
Starting sequence: SCAPER docking peptide (human); SNARRSLNFGGST
Substitution = SNARRSLNFGYST [G11Y]; result = 0.573
Substitution = SNAHRSLNFGGST [R4H]; result = 0.354
Substitution = SNAMRSLNFGGST [R4M]; result = 0.0285
Substitution = KNARRSLNFGGST [S1K]; result = 0.277
Substitution = SNARRSLQFGGST [N8Q]; result = 0.562
Substitution = SNARRSLNFSGST [G10S]; result = 0.435
Substitution = SNAPRSLNFGGST [R4P]; result = 0.105
Substitution = SNARRGLNFGGST [S6G]; result = 0.621
Substitution = SNARRSGNFGGST [L7G]; result = 0.149
Substitution = SNARRRLNFGGST [S6R]; result = 0.467
Substitution = SNARRSLHFGGST [N8H]; result = 0.624
Substitution = SNARRSLNFNGST [G10N]; result = 0.473
Substitution = SMARRSLNFGGST [N2M]; result = 0.33
Substitution = SNACRSLNFGGST [R4C]; result = 0.271
Substitution = SWARRSLNFGGST [N2W]; result = 0.532
Substitution = SAARRSLNFGGST [N2A]; result = 0.67
Substitution = SNARRSLNFGGSQ [T13Q]; result = 0.494
Substitution = SNARRSLNFGMST [G11M]; result = 0.462
Substitution = SNARRSLNFEGST [G10E]; result = 0.742
Substitution = SNARTSLNFGGST [R5T]; result = 0.209
Substitution = SNARGSLNFGGST [R5G]; result = 0.121
Substitution = SNARRDLNFGGST [S6D]; result = 0.456
Substitution = SNARRSLNFGGSN [T13N]; result = 0.863
Substitution = SNARRSLNFGGSA [T13A]; result = 0.618
Substitution = SVARRSLNFGGST [N2V]; result = 0.684

Series 5 — method: RNA Bind-n-Seq; molecule type: RNA; sample: in vitro; concentration: 200 nM; notes: whole 134-nt RNA, ends assumed; added: 150 mM LiCl; reference: input library; reading: higher = stronger binding; quantity: log2 enrichment; library: 7-deaza-guanosine replaces G
Target: Fragile X messenger ribonucleoprotein 1, C-terminal low-complexity region (Fmr1, Mus musculus, UniProt P35922)
All sequences stand within: GGGAGUUCUACAGUCCGACGAUC … UGGAAUUCUCGGGUGUCAAGG
Sequence = AAGUCCUGUGCUACACAUCGUAUGUACCGAAUCGGGGUUUUGGUUUUGGUUUUGGGAAAGUAUUAUGUUACGCCGUUCGGAUCUGCACUU; result = -2.42
Sequence = UAACUUUAGAGGAGGAUCUGAUGGAUAUGGCAGUGGACGUGGUUUUGGGGAUGGCUAUAAUGGGUAUGGAGGAGGACCUGGAGGUGGCAA; result = 0.528
Sequence = GCAGGAAGUAAAAACAAAUGGAAAUGCUUCGGAUAGUGGCAGGGGUGGGGGUUGCUAAGGAAAGGGUGGGAUGGGAGUGGGCAAAGAGUU; result = 1.33
Sequence = GCAGGAAGUAAAAACAAAUGGAAAUGCUUCGGAUAGUGGCAGGGGUGGGGGUUGCUAAGGAAAGGGUGGGAUGGGAGUGGGUAAAGGGUU; result = 1.47
Sequence = CCUCAAGUCCUGUGCUACACAUCGUAUGUACCGAAUCGGAAAAAGGUGGUGGAAAGUAUUAUGUUACGCCGUUCGGAUCUGCACUUCCAG; result = -0.0561
Sequence = UAACUUUAGAGGAGGAUCUGAUGGAUAUGGCAGUGGACGUGGAUUUGGGGAUGGCUAUAAUGGGUAUGGAGGAAGACCUGGAGGUGGCAA; result = -0.209
Sequence = AAGUCCUGUGCUACACAUCGUAUGUACCGAAUCGGGGUGGGGAGGGGAAAAAGGGGAAAGUAUUAUGUUACGCCGUUCGGAUCUGCACUU; result = 0.492
Sequence = AGUCCUGUGCUACACAUCGUAUGUACCGAAUCAAACCCAAAUUUUUUUAAAUUUAAAAAAGUAUUAUGUUACGCCGUUCGGAUCUGCACU; result = -1.85
Sequence = UAACUUUAGAGGAGGAUCUGAUUGAUAUGGCAGUGGACGUGGAUUUGGGGAUGGCUAUAAUGGGUAUGGAGGAGGACCUGGAGGUGGCAA; result = 0.15
Sequence = UGGGAGGUGGAUUUUGUUUAUUUUUUUCGCUCAUUUCCAGGGGUGGGAAUUUUUUUUUAAUAUGUGUCAUGAAUAAAGUUGUUUUUGAAA; result = 0.434
Sequence = UCCUGUGCUACACAUCGUAUGUACCGAAUCAAAGUGUGUGUGUGUGUGUGUGUGUGAAAAAAGUAUUAUGUUACGCCGUUCGGAUCUGCA; result = -0.525

A few entries again (series 2):
Sequence = CAACGCTA; result = -0.103
Sequence = GAAGCGCC; result = -0.0244
Sequence = GCTCGTCC; result = 0.161
Sequence = GTGTATGA; result = -0.0537
Sequence = TAAATGCA; result = -0.0658
Sequence = AGCGTTCC; result = -0.072
Sequence = CTATTTTC; result = 0.0518
Sequence = CCTGGCCG; result = 0.0776
Sequence = ACTTTGCG; result = 0.0668
